Assay results collected from several papers.
Parts stem from different laboratories: compare values within a part only.

Set 1 — method: protein-binding microarray; molecule type: double-stranded DNA, one strand shown; sample: in vitro; concentration: not given; reading: higher = stronger binding
Target: Transcription factor SOX-2, HMG box (SOX2, Homo sapiens, UniProt P48431, residues 19-118)
Chain of UniProt P48431 (19-118, looked up): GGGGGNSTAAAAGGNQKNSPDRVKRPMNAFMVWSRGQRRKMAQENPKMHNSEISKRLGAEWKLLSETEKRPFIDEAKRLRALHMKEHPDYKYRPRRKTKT
Notes: k-mer, scored over probes, only values ≥0.25
Oligonucleotide	E-score
ATAATTC	0.367
TAAATAA	0.311
ATGCGTA	0.278
ATAATAG	0.418

Set 2 — method: RNA Bind-n-Seq; molecule type: RNA; sample: in vitro; concentration: not given; reference: input RNA pool; reading: higher = stronger binding
Target: RING finger protein unkempt homolog, zinc fingers 1-6, GST-SBP tag (UNK, Homo sapiens, UniProt Q9C0B0, residues 30-357)
Chain of UniProt Q9C0B0 (30-357, looked up): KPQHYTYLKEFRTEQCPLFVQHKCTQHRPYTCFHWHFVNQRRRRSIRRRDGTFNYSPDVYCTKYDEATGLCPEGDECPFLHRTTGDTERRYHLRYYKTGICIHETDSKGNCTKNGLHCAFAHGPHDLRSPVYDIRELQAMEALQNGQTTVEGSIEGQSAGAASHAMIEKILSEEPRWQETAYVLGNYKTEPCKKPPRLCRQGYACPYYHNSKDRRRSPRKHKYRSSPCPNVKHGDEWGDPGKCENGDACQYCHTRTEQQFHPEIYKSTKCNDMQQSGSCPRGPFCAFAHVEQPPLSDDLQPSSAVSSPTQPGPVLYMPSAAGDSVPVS
Notes: RNA with constant flanks, human and mouse sites, ends assumed
Oligonucleotide	bound/input enrichment
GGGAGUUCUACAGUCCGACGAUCAUCACAGCCUGUGAACUGGCCAACGGCCAUGUCCCCUUUAAGGAUAUGCCUGCCACCCAGAUGCUGCUAGAGAAACUGAACGGCACAGUGCCCUGCCUGUUGGAUACCAGCACCAUCCCCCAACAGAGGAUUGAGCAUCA	0.131 ratio
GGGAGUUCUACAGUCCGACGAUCGGCUAUUUAUUGCAUUCUCCUUUGUAAACCCAGUCUAGGGUAAGCUUAAUACUUUACCCACAGGGUAGCUCUUCAGAAAACCUAAUCAGUCUAUUUUGUGCCCAGGUUUGUGUGUGUGUGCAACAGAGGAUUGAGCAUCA	0.33 ratio
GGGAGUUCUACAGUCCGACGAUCAAUGAGAAGAAACUUCAAGAGGUUGAUAGUUUGUGGAAAGAAUUUGAAACUCCAGAGAAAGCAAAUAAAAUAGUAAAGCUAAAACAUUUUGAGAAAUUUCAGGAUACAGCAGAAGCAUUACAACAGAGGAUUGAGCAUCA	0.526 ratio
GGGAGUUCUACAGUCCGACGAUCGUUAAUUUUACCUUACUUUCAUUGUAAAUAAGCCUGUCUUCCUAUCUGGAUUUUUUGUGUGCAUACAUAUUCUACUGAUUAACUACUUUUGCAGUUUUAAUCCUGUAUUAUUUCUUCUACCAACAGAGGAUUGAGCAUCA	0.252 ratio
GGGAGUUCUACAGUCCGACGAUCCAACUGUCAUUACCCCUUAACUUCCUGGGAACUGUAUAUAGAGAGACAAGACAAGCACUCAUAGAUAUGAACACCUUGUUUACUCUGCUCAAGGUAGACACACGGAUUAAAGACAAAGUGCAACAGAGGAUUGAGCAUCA	0.408 ratio

Set 3 — method: protein binding microarray; molecule type: double-stranded DNA, one strand shown; sample: in vitro; concentration: not given; reference: not given; reading: higher = stronger binding
Target: Histone acetyltransferase KAT6A, winged helix 1, GST fusion (KAT6A, Homo sapiens, UniProt Q92794, residues 1-85)
Notes: 8-mer, flanks averaged, mean of 2 arrays, mostly near background
Residues (chain): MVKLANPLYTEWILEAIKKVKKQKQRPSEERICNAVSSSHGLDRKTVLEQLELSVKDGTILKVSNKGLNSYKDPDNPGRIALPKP
Oligonucleotide	E-score
GTGACGTA	-0.0268
TCACCCGA	0.0714
AGCAGTAG	-0.175
ATTAGCAC	-0.0253
GACGGAAA	0.302
ACTCGAAA	-0.184
AAAATTGT	-0.289
CGTCTCTC	0.0664
AATTTCGC	-0.0305
CGTGACGA	0.0798
AAAATCCT	-0.166

Set 4 — method: universal PBM; molecule type: double-stranded DNA, one strand shown; sample: in vitro; concentration: not given; reading: higher = stronger binding
Target: Sal-like protein 4, full length isoform B (SALL4, Homo sapiens, UniProt Q9UJQ4-2, residues 1-616)
Notes: 8-mer, flanks averaged, mean of replicates
Oligonucleotide	E-score
GTCGAGGA	-0.156
GGCCACCC	-0.345
CACCTTAC	0.0434
AACCTGGC	-0.151
AACGTGAA	0.0595
TATGGGGA	0.076
AGTCCGGG	-0.322

Mixed results
Molecule	target	test	system	setting	how to read	measurement	result
PhoQ, residues 284 288 289 292 302 303 TLMATV	PhoP, residues 12 14 15 18 19 LHATL (Escherichia coli, UniProt P23836)	Sort-seq, measured: YFP reporter	E. coli	PhoQ-PhoP variant library, added: 10 µM Mg2+	reference: high Mg2+ state, higher = stronger signaling	fold induction	1.38
